Measured values gathered from unrelated publications.
± gives the spread as reported.

Structure (SMILES)	assay	system	conditions	half-life [h]
Cc1c(Cc2cccc(OC(C)(C)C(=O)O)c2)c2ccc(C(=O)N[C@@H](C)c3cccc(C(C)(C)C)c3)cc2n1CC(C)(C)C		human liver microsomes		0.691
O=Cc1cc(OCc2ccccc2)ccc1B(O)O	chemical stability, HPLC-MS	borate buffered saline	pH 10.2, no N-acetyl-lysine	10.8
O=C(NC1CCC(F)(F)CC1)C(c1cncnc1)N(C(=O)C(F)Cl)c1ccc(-c2cncs2)cc1 (centres unmarked)		human liver microsomes	concentration not given, pH 7.4	0.782
Cc1c(Cc2cccc(OC(C)(C)C(=O)O)c2)c2ccc(C(=O)N[C@@H](C)c3cccc(C(C)(C)C)c3)cc2n1CC(C)C		human liver microsomes	1 µM, with: microsomes 1 mg/mL	> 1
CCCC/C=C/C(=O)N[C@@H](Cc1cc(F)cc(F)c1)C(=O)N[C@@H]1C(=O)N2CCC[C@H]2C(=O)N(C)[C@@H](C)C(=O)N[C@@H](C)C(=O)N2CCC[C@H]2C(=O)O[C@H]1C	H-D exchange, 1H NMR, refers to: alanine amide hydrogen	CD3OD	25 °C	41.7
Cc1c(Cc2cccc(OC(C)(C)C(=O)O)c2)c2ccc(C(=O)N[C@@H](C)c3cccc(C(C)(C)C)c3)cc2n1CC1CCC1		human liver microsomes	1 µM, with: microsomes 1 mg/mL	> 1
O=Cc1ccc2cccc(O)c2n1	reactivity with N-α-acetyl-lysine, HPLC-MS		pH 10.2	> 24
CCOC(=O)[C@H](CCCNC(N)=O)NC(=O)[C@H](Cc1c[nH]c2ccccc12)NC(=O)[C@@H]1CCCCN1C(=O)[C@H](Cc1ccccc1)N(C)C(=O)CCl	MALDI MS	cell-free DMEM with FBS	10 µM	> 72
Cc1ccc(C(C)C)cc1.O=C(N=P(c1ccccc1)(c1ccccc1)c1ccccc1)c1[c-]cccc1.[Cl-].[Ru+2]		DMSO-d6		~216
O=C(Cc1ccc(F)cc1)NCCOc1ccc(-c2ccc(F)cc2)nn1			oral, 20 mg/kg	2.3 ± 0.6
Cc1noc(C)c1C#N			pH 7.4	178
O=C(Nc1cccc(C(=O)N2CCC(c3nc(-c4ccccc4)n[nH]3)CC2)c1)c1ccccc1		human liver microsomes	pH 7.4, with: NADPH	> 2
CN1CCN(C(=S)N/N=C/c2ccccc2O)CC1		plasma	intravenous, 30 mg/kg	2.68 ± 1.54
CC(C)Cn1cc(Cc2cccc(OC(C)(C)C(=O)O)c2)c2cc(F)c(C(=O)N[C@@H](C)c3cccc(C(C)(C)C)c3)cc21		human liver microsomes	1 µM, with: microsomes 1 mg/mL	> 1
CN(C(=O)OCc1cc(C(=O)O)ccc1OP(=O)(O)O)C(=O)c1ccc(N2C(=S)N(c3ccc(C#N)c(C(F)(F)F)c3)C(=O)C2(C)C)cc1F		HBSS	10 µM, 2 h incubation, pH 6.5	> 2
Cc1c(Cc2cccc(OC(C)(C)C(=O)O)c2)c2ccc(C(=O)N[C@@H](C)c3cccc(C#N)c3)cc2n1C		human liver microsomes		0.964
C/C(N)=N/C(=N\S(=O)(=O)c1ccc(C(F)(F)F)cc1)N1C[C@H](c2ccccc2)C(c2ccc(Cl)cc2)=N1		human liver cytosol		> 2

Repeated from above:
Structure (SMILES)	assay	system	conditions	half-life [h]
CCOC(=O)[C@H](CCCNC(N)=O)NC(=O)[C@H](Cc1c[nH]c2ccccc12)NC(=O)[C@@H]1CCCCN1C(=O)[C@H](Cc1ccccc1)N(C)C(=O)CCl	MALDI MS	cell-free DMEM with FBS	10 µM	> 72
Cc1ccc(C(C)C)cc1.O=C(N=P(c1ccccc1)(c1ccccc1)c1ccccc1)c1[c-]cccc1.[Cl-].[Ru+2]		DMSO-d6		~216
O=C(Cc1ccc(F)cc1)NCCOc1ccc(-c2ccc(F)cc2)nn1			oral, 20 mg/kg	2.3 ± 0.6
